{"data": "Measured values collected from several papers", "Ubiquitin carboxyl-terminal hydrolase 39 ZnF-UBD domain": "Ubiquitin carboxyl-terminal hydrolase 39, ZnF-UBD domain (Homo sapiens, UniProt Q53GS9)", "Alpha-carbonic anhydrase": "Alpha-carbonic anhydrase (Enterococcus faecium, UniProt Q3XYE8)", "note": "Protocols differ between the studies behind these lines.", "UniProt Q53GS9, sequence (whole entry, looked up)": "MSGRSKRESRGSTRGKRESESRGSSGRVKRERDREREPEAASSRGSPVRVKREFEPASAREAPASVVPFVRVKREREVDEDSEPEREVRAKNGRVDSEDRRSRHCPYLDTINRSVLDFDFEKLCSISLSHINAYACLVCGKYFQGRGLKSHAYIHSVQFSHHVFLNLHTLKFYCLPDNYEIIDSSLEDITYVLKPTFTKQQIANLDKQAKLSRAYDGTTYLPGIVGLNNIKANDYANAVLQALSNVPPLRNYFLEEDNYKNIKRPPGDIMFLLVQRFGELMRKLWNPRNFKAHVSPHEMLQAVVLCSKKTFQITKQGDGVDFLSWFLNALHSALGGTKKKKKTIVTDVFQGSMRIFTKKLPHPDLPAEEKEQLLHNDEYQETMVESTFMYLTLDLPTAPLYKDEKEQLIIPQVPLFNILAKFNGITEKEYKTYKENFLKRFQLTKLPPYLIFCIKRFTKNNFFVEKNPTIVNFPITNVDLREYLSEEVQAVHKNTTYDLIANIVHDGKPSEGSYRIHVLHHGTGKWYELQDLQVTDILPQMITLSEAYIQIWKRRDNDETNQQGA"}
{"SMILES": "COc1ncc(-c2ccc3nccc(-c4ccnnc4)c3c2)cc1NS(=O)(=O)c1ccc(F)cc1F", "tested on": "NLRP3 inflammasome (mouse)", "system": "mouse BMDM", "conditions": "10 µM", "quantity": "inhibition", "result": "44.8%"}
{"SMILES": "C[C@@H](Oc1cc(-c2cnn(C3CCNCC3)c2)cnc1N)c1c(Cl)ccc(F)c1Cl", "tested on": "iCell Cardiomyocytes (hiPSC-derived)", "assay": "xCELLigence Cardio impedance", "conditions": "concentration not given, 2 h", "scale": "baseline: control", "quantity": "beat amplitude", "result": "93.9%"}
{"SMILES": "O=C(O)CCn1cccn1", "tested on": "Ubiquitin carboxyl-terminal hydrolase 39 ZnF-UBD domain", "quantity": "Kd", "result": "> 1 mM"}
{"SMILES": "C[S+]([O-])c1ccc(-c2nc(-c3ccncc3)c(-c3ccc(F)cc3)[nH]2)cc1 (centres unmarked)", "tested on": "iCell Cardiomyocytes (hiPSC-derived)", "assay": "CellTiter-Glo", "conditions": "concentration not given, 24 h", "scale": "baseline: control", "quantity": "ATP level", "result": "97.1%"}
{"SMILES": "COC(=O)c1ccc2c(c1)NC(=O)/C2=C(\\Nc1ccc(N(C)C(=O)CN2CCN(C)CC2)cc1)c1ccccc1", "tested on": "NLRP3 inflammasome (mouse)", "system": "mouse BMDM", "conditions": "10 µM", "quantity": "inhibition", "result": "36.6%"}
{"SMILES": "O=C(O)CCO", "assay": "binding, equilibrium dialysis LC-MS", "conditions": "5 µM, thermostabilized A2AR-BRIL construct", "scale": "baseline: no-protein control, direction not given", "quantity": "z-scored log2 fold change", "result": -0.0261}
{"SMILES": "NS(=O)(=O)c1nnc(NC(=O)C2CCCC3(CCCCC3)C2)s1 (centres unmarked)", "tested on": "Alpha-carbonic anhydrase", "assay": "CO2 hydration, inhibitor, stopped-flow kinetics", "quantity": "Ki", "result": "62.5 nM"}
{"SMILES": "Cn1c(Nc2ccc(C(F)(F)F)cc2)nc2cc(Oc3ccnc(-c4ncc(C(F)(F)F)[nH]4)c3)ccc21", "tested on": "iCell Cardiomyocytes (hiPSC-derived)", "assay": "xCELLigence Cardio impedance", "conditions": "concentration not given, 2 h", "scale": "baseline: control", "quantity": "beat rate", "result": "104%"}
{"SMILES": "Nc1c(O)cccc1C(=O)O", "assay": "binding, equilibrium dialysis LC-MS", "conditions": "5 µM, thermostabilized A2AR-BRIL construct", "scale": "baseline: no-protein control, direction not given", "quantity": "z-scored log2 fold change", "result": 0.499}
{"SMILES": "COc1cc2nccc(Oc3ccc(NC(=O)Nc4cc(C)on4)c(Cl)c3)c2cc1OC", "tested on": "NLRP3 inflammasome (mouse)", "system": "mouse BMDM", "conditions": "10 µM", "quantity": "inhibition", "result": "-86.6%"}
{"SMILES": "OCCn1cc(-c2ccc3c(c2)CC/C3=N\\O)c(-c2ccncc2)n1", "tested on": "iCell Cardiomyocytes (hiPSC-derived)", "assay": "cellular impedance", "conditions": "concentration not given, 24 h", "scale": "baseline: control", "quantity": "cell index", "result": "92.1%"}
{"SMILES": "O=P(O)(O)OC[C@H](O)CO", "assay": "binding, equilibrium dialysis LC-MS", "conditions": "5 µM, thermostabilized A2AR-BRIL construct", "scale": "baseline: no-protein control, direction not given", "quantity": "z-scored log2 fold change", "result": 0.304}
{"SMILES": "Cc1nc(-c2cn3c(n2)-c2ccc(-c4cnn(C(C)(C)C(N)=O)c4)cc2OCC3)n(C(C)C)n1", "tested on": "NLRP3 inflammasome (mouse)", "system": "mouse BMDM", "conditions": "10 µM", "quantity": "inhibition", "result": "6.67%"}
{"SMILES": "O=C(O)c1cc(O)c2cccc(O)c2n1", "assay": "binding, equilibrium dialysis LC-MS", "conditions": "5 µM, thermostabilized A2AR-BRIL construct", "scale": "baseline: no-protein control, direction not given", "quantity": "z-scored log2 fold change", "result": 0.632}
{"SMILES": "CCN1CCN(c2ccc(Nc3cc(N(C)C(=O)Nc4c(Cl)c(OC)cc(OC)c4Cl)ncn3)cc2)CC1", "tested on": "NLRP3 inflammasome (mouse)", "system": "mouse BMDM", "conditions": "10 µM", "quantity": "inhibition", "result": "15.7%"}
{"SMILES": "NS(=O)(=O)c1nnc(NC(=O)CN2CC3CCC(C2)O3)s1", "tested on": "Alpha-carbonic anhydrase", "assay": "CO2 hydration, inhibitor, stopped-flow kinetics", "quantity": "Ki", "result": "8.7 nM"}
{"SMILES": "CNC(=O)c1cc(Oc2ccc(NC(=O)Nc3ccc(Cl)c(C(F)(F)F)c3)cc2)ccn1", "tested on": "iCell Cardiomyocytes (hiPSC-derived)", "assay": "xCELLigence Cardio impedance", "conditions": "concentration not given, 2 h", "scale": "baseline: control", "quantity": "beat rate", "result": "95.2%"}
{"SMILES": "Cc1cccc(-c2nn3c(c2-c2ccnc4ccc(C(N)=O)cc24)CCC3)n1", "tested on": "NLRP3 inflammasome (mouse)", "system": "mouse BMDM", "conditions": "10 µM", "quantity": "inhibition", "result": "19%"}
{"SMILES": "O=C(O)CCn1cnc2ccccc21", "tested on": "Ubiquitin carboxyl-terminal hydrolase 39 ZnF-UBD domain", "quantity": "Kd", "result": "> 1 mM"}
{"SMILES": "CC(=O)O[C@H](CC(=O)[O-])C[N+](C)(C)C", "assay": "binding, equilibrium dialysis LC-MS", "conditions": "5 µM, thermostabilized A2AR-BRIL construct", "scale": "baseline: no-protein control, direction not given", "quantity": "z-scored log2 fold change", "result": 0.112}
{"SMILES": "Cn1cc(-c2ccc(-c3cncc(Cl)c3N3CCC4(CCNC4=O)CC3)cc2)cn1", "tested on": "COLO 205", "assay": "gene expression, microarray, item: PLK1 mRNA", "conditions": "concentration not given, 2 h", "scale": "baseline: untreated cells", "quantity": "log2 fold change", "result": -2.46}
{"SMILES": "OC(CCN1CCCCC1)(c1ccccc1)C1CC2C=CC1C2 (centres unmarked)", "assay": "resting-state EEG", "system": "healthy elderly humans", "conditions": "oral, 4 mg, eyes open, LS mean", "quantity": "power, alpha, EEG O1-Pz", "result": "7.6 µV²"}
{"SMILES": "OC[C@H]1O[C@@](CO)(O[C@H]2O[C@H](CO)[C@@H](O)[C@H](O)[C@H]2O)[C@@H](O)[C@@H]1O", "assay": "binding, equilibrium dialysis LC-MS", "conditions": "5 µM, thermostabilized A2AR-BRIL construct", "scale": "baseline: no-protein control, direction not given", "quantity": "z-scored log2 fold change", "result": 0.192}
{"note": "Excerpt of the above:"}
{"SMILES": "OC(CCN1CCCCC1)(c1ccccc1)C1CC2C=CC1C2 (centres unmarked)", "assay": "resting-state EEG", "system": "healthy elderly humans", "conditions": "oral, 4 mg, eyes open, LS mean", "quantity": "power, alpha, EEG O1-Pz", "result": "7.6 µV²"}
{"SMILES": "O=C(O)CCn1cnc2ccccc21", "tested on": "Ubiquitin carboxyl-terminal hydrolase 39 ZnF-UBD domain", "quantity": "Kd", "result": "> 1 mM"}
